Published values of several laboratories.
Each numbered part is a random draw from the data of one study; scales do not carry over between parts. Changes are numbered by the printed parent chain.

Block 1
Target: ABI1, truncated, D143A, DHFR fusion (Arabidopsis thaliana)
Method: DHFR PCA, deep sequencing
Medium: yeast
Setting: methotrexate growth selection, single substitutions
With: (+)-ABA 17 µM
Baseline: wild-type fitted maximum
Direction: higher = stronger binding
Parent: PYL1, truncated, DHFR fusion (Arabidopsis thaliana); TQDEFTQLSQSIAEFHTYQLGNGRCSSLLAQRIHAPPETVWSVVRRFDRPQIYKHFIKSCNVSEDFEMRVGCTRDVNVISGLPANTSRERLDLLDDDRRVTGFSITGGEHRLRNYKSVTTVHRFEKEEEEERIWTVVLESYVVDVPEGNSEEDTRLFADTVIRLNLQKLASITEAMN
Variant	relative binding score [%]
R111G	7.63
D3L	75.4
T39M	82.8
V100W	-1.54
E109D	108
H55F	76.8
R46N	45.8
T106P	-15.1
N165A	-3.34
R90Y	1.36
Y141P	-20.7
S104T	96.6
E131Y	73.8
S87E	-7.71
F5P	64.4

Block 2
Target: Hepatocyte nuclear factor 3-alpha (Foxa1, Mus musculus, UniProt P35582, residues 1-468, full length assumed)
Chain of UniProt P35582 (whole entry, looked up): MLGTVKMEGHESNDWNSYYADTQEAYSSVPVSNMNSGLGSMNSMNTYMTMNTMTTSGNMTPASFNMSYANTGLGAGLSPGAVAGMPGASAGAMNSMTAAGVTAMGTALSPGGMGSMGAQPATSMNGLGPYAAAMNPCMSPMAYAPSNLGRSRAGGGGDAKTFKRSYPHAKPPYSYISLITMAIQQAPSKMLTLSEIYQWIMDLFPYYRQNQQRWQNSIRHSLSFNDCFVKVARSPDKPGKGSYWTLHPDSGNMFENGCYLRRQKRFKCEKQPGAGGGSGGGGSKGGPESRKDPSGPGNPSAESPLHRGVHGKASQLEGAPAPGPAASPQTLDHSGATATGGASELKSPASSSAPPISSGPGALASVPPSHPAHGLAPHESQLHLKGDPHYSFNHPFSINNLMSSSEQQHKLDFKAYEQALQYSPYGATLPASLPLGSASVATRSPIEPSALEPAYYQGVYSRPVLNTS
Method: EMSA with sequencing
Form: double-stranded DNA, one strand shown
Medium: in vitro
Concentration: 10 and 20 nM
Setting: whole designed probe, mean of two concentrations, ends assumed
Baseline: negative control set to 0
Direction: higher = stronger binding
All sequences stand within: GTGAGCGGTGCCCATTGATGGGGAAC … TTTCACTGGGATCGTGGGGAC
Oligonucleotide	normalised bound fraction
AGGTGAATTGGCTGCTTCCATCCTGGCTTGGAACTTCAGACATAGAAGCCTTGGGACTTTCTCAGGACTTTCTCCAGATCTGTCACATGCTCAGCAAACAAGCATCTCTGTGGATCACGTGACCTTAGCCAGGGATGTTGGTGAAACTGTGTGTTGGTCTAGGTACCTAGCCCATGCTAGGTGCTCATCGAAT	0.0921 ratio
ATGTAGTAATGGATTGGAGTTGGAGATATCAGTATGAATTCATGCTTAGTGTGATATAGACAGAAATGTATTTATAGATATGTTTATATATATGTCAATATACACATATATATTTCCTTGCTATGTCAGCTGAGAAGGCATAGAAACAACAACAACTCAGTAGCAGTGAGCACCCTAGTGCCCAGATCTTGGT	0.24 ratio
CTGCAGATCTGCAAAAAAAGGGAGAAATCCGGCACTGGCTGCTCCACCGGGCCGGCTGCAAAGTGCGCGAACCGCGCCGTTTGCAATCCGTTTATTTGCATTATGCCCCATGAATCATTGTTTACCGGAGAATTGCAGCAGGGTTTGAATAGCCCGGCTTAAGAAAACACACACACACGCGCGCGCACACACA	0.43 ratio
AACAGAATTATGCCTTGCATACTGAGTAAGTGATGACATTCAGCAGAACACCCACTATGGAGAGCACCAGATTATAGCTGTCCTTAAACTGCTTGTTTGCTTTGCCCTGATAAAAGAAAAAATGTTCATAGAGTTTTCTAAGTCTCTTTTGTGTGGTTAGTTTATTTGCTTGTTGTATGTGAATAAGAAAGAT	0.335 ratio
AGAACATATAAATCAGCACAAACAATGTAATATCAGATGGCTTTCAAATAAGAGATTAGAAAATGTTGTCCAAAGATATAAATAATGTGAAAAGTAATTTAAAATGCATTTATTTCATTAAGATAGATGACATAACTTTTTTAATGTCAAGGAATTTAATAATCACCTCCCTAAAACTTAATGGGTCCTCCCC	0.0264 ratio

Block 3
Target: UBE2Q1 UBC core domain (UniProt Q7Z7E8)
Method: yeast two-hybrid
Medium: yeast
Setting: mostly zero background
Baseline: not given
Direction: higher = stronger interaction
B1: TRIM72 RING domain (UniProt Q6ZMU5); chain APGLLHQELSCPLCLQLFDAPVTAECGHSFCRACLGRVAGEPAADGTVLCPCCQAPTRPQALST
B2: TRIM69 RING domain (UniProt Q86WT6); chain VIQDITMELHCPLCNDWFRDPLMLSCGHNFCEACIQDFWRLQAKETFCPECKMLCQYNNCTF
B3: TRIM63 RING domain (UniProt Q969Q1); chain PMENLEKQLICPICLEMFTKPVVILPCQHNLCRKCANDIFQAANPYWTSRGSSVSMSGGRFRCPTCRHEVIMDRHGV
Target sequence (chain): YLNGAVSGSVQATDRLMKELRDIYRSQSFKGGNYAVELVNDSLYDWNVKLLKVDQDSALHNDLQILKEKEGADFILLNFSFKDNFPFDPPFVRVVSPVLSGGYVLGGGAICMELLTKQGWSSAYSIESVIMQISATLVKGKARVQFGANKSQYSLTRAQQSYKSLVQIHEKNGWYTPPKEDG
Molecule	lacZ reporter activity
YWAMDSTFELCKICAESNKDVKIEPCGHLLCSCCLAAWQHSDSQTCPFCRCEIKGWEAVS (CBLC RING domain (UniProt Q9ULV8))	0
QLRRLQEERTCKVCMDKEVSIVFIPCGHLVVCKDCAPSLRKCPICRSTIKGTVRTF (BIRC3 RING domain (UniProt Q13489))	0
DAIPSLSECQCGICMEILVEPVTLPCNHTLCKPCFQSTVEKASLCCPFCRRRVSSWTRYH (RNF168 RING domain (UniProt Q8IYW5))	0
B1 (TRIM72 RING domain)	0
PEELQAMDNVCIICREEMVTGAKRLPCNHIFHTSCLRSWFQRQQTCPTCRMDVLRASLPA (SYVN1 RING domain (UniProt Q86TM6))	0
RLTMMWEEVTCPICLDPFVEPVSIECGHSFCQECISQVGKGGGSVCPVCRQRFLLKNLRP (TRIM21 RING domain (UniProt P19474))	0
FPEHFVKSISCQICEHILADPVETNCKHVFCRVCILRCLKVMGSYCPSCRYPCFPTDLES (RAG1 RING domain (UniProt P15918))	0
B2 (TRIM69 RING domain)	0
B3 (TRIM63 RING domain)	0

Block 4
Target: RING finger protein unkempt homolog, zinc fingers 1-6, GST-SBP tag (UNK, Homo sapiens, UniProt Q9C0B0, residues 30-357)
Chain of UniProt Q9C0B0 (30-357, looked up): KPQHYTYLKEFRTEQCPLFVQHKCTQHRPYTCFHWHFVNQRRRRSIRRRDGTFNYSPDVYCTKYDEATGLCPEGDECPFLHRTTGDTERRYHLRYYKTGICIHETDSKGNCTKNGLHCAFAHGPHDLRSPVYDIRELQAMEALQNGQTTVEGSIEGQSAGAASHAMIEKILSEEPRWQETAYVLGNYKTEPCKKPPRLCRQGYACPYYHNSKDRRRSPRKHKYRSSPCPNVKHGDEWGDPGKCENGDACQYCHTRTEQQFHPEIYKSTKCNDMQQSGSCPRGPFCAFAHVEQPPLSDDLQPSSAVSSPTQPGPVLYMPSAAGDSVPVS
Method: RNA Bind-n-Seq
Form: RNA
Medium: in vitro
Concentration: not given
Setting: RNA with constant flanks, human and mouse sites, ends assumed
Baseline: input RNA pool
Direction: higher = stronger binding
All sequences stand within: GGGAGUUCUACAGUCCGACGAUC … CAACAGAGGAUUGAGCAUCA
Oligonucleotide	bound/input enrichment
UUUGGUGGUCAAAGUAAAUGGGUGUAGGAUGCUACCAGCCUCAGGAGAGGCUUCACCAUGUUUAGCAUAGUUGUCUUCACAAGAAAGAAUUACCCAGUCCAAGAUGUCAUUAGUGCCAAG	1.3 ratio
GACGGUCCAUCCAAGGUGUCUUACACCUUACAGCGCCAGACUAUCUUCAACAUUUCCCUUAUGAAACUCUAUAACCACAGGCCCCUGACAGAGCCCAGCUUGCAAAAGACCGUUUUAAUU	0.197 ratio
CGAUGUGCUCAAAAGAGAUAUAAUGGAGGACUGCUAGAAUUUCAUAAAAGCUUACAAGAAAUUGGAGACAAAAAUGACCAUUGGUUUGACAUAGAUCCUACAGAAGAUGAAGAUUUACCU	0.198 ratio
GCAUGGCUGACCAACUGACUGAAGAGCAGAUUGCAGAAUUCAAAGAAGCUUUUUCACUAUUUGACAAAGAUGGUGAUGGAACUAUAACAACAAAGGAAUUGGGAACUGUAAUGAGAUCUC	0.17 ratio
AAUUCAAUGGUUGAGGGUUCAGAACUCAAAAAGGUUCGCUCCAACUCUAGAAUUUAUCAUAGGUACUUUUUACUGGAUGCUGACAUGCAGAGCCUAAGGUGGGAGCCAUCUAAGAAGGAU	4.95 ratio
AGUAGGAAAAUCACCGUUCUGCAAGUGAACGAGAAGUCCCUCAUCCGGCAGUACACCACCUUAGUGGAGAUGGAGCGGCACCUGAGAAAGGAAAACGGGAAACACAGGAAUGACGUCAUA	0.187 ratio
UCUAGGAGUCACAGUAUCUUCCUGAUUAACAUUAAGCAAGAGAAUGUGGAGACUGAAAAAAAACUCAGCGGGAAGCUGUAUUUGGUUGAUUUGGCUGGGAGUGAAAAGGUCAGCAAAACC	0.285 ratio
GCCCCACUUGAGGUUUUCCGGCGAUUUGUGUGGAACUUCUUCCGCCUGGAGAAUGAACAUCUGAAUAACUGUGGUGAAUUCCGUGCUGUGCGGGACAUCUCUGUGGCCCCCCUGAACGCA	0.393 ratio

For quick reference, copied from above (block 1):
Variant	relative binding score [%]
D3L	75.4
N165A	-3.34
F5P	64.4
T106P	-15.1
E131Y	73.8
